Measurements pooled from the literature.
A part holds a random share of what one study measured.
Chain of UniProt P57058 (whole entry, looked up): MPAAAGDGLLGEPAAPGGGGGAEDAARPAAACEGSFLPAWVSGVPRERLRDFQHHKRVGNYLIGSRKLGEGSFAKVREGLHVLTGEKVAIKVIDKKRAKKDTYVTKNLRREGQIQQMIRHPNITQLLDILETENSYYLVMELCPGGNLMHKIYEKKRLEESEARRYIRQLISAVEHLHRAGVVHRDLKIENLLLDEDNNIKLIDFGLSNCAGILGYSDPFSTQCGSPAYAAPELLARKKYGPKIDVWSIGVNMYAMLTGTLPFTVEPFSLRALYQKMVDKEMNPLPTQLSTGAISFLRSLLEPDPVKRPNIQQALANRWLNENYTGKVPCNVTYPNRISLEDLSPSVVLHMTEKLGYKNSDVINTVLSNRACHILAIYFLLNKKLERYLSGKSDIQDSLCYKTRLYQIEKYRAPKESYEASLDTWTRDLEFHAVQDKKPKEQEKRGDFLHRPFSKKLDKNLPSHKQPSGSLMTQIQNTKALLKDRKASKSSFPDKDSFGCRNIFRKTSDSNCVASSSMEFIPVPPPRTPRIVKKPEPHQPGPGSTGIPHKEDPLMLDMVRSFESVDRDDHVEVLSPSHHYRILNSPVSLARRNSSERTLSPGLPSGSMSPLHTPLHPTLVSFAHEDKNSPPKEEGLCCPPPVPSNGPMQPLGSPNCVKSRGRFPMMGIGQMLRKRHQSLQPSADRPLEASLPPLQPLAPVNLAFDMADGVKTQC
Chain of UniProt P00519 (whole entry, unmodified, looked up): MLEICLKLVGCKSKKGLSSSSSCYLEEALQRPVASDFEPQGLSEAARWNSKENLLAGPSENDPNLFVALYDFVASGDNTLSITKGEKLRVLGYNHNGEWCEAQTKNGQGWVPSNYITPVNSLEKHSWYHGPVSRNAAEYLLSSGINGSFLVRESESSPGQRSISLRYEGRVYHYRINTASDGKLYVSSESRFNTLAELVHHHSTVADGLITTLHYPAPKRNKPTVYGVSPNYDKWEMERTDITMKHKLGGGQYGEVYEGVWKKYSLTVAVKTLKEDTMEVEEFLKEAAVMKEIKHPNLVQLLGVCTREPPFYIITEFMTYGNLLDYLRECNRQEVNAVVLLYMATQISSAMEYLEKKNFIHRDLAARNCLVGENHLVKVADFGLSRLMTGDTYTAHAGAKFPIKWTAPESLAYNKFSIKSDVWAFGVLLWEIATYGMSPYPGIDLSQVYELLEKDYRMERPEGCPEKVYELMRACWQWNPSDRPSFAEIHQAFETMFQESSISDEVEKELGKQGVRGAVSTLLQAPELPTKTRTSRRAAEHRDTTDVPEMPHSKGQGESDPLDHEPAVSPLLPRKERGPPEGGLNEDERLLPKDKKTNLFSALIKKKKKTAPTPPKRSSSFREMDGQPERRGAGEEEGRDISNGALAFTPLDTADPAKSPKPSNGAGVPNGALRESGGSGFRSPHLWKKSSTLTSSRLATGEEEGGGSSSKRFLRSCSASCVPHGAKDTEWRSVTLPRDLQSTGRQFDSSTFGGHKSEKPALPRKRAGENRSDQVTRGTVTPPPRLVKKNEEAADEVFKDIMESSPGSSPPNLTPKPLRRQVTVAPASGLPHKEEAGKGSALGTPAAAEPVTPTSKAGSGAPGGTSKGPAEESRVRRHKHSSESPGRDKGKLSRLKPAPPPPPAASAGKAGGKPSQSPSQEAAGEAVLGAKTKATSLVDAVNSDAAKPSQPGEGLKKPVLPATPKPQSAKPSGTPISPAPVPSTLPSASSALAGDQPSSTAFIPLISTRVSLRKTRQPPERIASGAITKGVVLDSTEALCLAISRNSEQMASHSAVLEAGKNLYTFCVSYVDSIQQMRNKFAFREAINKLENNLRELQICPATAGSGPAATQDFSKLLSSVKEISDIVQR
Chain of UniProt Q9Y3S1 (whole entry, looked up): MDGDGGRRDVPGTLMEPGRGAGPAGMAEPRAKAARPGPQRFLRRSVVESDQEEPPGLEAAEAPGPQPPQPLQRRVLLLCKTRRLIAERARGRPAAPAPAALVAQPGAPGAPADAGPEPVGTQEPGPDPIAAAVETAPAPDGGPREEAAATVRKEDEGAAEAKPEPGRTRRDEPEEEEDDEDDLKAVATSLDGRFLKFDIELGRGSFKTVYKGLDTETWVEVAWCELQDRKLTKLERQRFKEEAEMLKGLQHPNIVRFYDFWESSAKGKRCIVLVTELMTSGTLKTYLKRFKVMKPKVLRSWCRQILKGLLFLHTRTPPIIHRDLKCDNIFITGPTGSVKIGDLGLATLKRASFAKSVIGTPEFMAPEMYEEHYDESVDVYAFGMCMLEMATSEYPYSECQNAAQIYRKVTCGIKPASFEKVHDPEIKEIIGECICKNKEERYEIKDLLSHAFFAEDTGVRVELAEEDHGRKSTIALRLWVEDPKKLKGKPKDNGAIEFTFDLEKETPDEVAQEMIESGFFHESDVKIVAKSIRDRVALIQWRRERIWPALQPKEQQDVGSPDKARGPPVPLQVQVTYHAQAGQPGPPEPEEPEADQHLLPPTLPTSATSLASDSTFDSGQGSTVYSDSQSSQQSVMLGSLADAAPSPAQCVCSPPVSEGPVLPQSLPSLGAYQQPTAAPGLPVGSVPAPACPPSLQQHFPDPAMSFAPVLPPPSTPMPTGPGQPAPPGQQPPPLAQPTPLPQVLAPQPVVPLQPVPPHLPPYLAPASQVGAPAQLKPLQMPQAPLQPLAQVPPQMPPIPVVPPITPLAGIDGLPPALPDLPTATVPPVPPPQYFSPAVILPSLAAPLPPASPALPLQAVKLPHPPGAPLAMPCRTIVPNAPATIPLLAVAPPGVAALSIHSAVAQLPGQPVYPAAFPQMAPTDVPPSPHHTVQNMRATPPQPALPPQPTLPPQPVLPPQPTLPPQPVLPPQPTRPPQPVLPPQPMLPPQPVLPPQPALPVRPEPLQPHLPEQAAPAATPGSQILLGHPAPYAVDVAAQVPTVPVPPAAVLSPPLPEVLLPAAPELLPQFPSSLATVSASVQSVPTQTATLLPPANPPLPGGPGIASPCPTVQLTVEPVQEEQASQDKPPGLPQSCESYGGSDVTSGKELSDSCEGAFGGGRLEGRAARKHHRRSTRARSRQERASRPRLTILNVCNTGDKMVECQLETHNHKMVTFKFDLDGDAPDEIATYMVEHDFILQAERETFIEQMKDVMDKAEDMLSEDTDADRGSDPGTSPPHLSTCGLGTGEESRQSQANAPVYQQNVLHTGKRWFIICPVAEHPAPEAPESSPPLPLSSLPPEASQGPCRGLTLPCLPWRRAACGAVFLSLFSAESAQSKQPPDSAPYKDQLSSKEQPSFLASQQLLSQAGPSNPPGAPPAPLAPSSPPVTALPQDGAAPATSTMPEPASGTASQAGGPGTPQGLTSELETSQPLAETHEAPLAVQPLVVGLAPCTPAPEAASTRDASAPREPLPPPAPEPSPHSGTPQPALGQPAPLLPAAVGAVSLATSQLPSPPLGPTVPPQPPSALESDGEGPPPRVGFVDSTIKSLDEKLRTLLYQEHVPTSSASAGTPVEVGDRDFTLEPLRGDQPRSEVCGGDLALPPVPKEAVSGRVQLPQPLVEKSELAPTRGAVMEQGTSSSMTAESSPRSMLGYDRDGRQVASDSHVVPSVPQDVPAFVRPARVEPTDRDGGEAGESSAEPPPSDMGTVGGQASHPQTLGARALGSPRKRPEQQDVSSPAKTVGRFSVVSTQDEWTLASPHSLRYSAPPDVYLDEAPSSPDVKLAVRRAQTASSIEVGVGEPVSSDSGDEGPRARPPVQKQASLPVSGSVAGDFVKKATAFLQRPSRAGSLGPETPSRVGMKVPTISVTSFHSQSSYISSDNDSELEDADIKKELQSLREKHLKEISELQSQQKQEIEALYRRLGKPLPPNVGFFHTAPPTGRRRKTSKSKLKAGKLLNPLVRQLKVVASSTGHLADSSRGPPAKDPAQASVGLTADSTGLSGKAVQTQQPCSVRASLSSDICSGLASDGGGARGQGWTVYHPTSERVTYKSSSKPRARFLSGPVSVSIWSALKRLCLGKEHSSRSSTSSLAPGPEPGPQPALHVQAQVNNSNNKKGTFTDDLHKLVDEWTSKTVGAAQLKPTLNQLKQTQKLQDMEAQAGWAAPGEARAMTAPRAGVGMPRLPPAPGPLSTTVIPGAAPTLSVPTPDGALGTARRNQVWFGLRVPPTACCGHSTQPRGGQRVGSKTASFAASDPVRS
Chain of UniProt Q9Y2U5 (whole entry, looked up): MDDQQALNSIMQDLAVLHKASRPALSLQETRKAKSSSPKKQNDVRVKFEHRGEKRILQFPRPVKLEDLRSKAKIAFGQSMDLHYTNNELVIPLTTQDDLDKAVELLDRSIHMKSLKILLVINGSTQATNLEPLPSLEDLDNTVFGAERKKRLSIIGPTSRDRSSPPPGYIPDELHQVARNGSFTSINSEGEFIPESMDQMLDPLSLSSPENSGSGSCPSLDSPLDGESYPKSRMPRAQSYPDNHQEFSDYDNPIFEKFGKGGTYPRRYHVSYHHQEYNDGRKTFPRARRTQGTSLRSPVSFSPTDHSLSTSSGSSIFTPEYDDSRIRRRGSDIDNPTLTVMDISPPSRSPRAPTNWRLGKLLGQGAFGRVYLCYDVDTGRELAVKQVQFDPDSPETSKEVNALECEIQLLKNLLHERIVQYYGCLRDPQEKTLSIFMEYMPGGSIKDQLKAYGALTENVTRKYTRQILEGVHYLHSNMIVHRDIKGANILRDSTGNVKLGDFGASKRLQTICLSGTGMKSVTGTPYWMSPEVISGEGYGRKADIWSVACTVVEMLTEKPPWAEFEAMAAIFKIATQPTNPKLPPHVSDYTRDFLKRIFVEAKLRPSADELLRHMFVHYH

Sample 1
Target: Interferon regulatory factor 7, full length, phosphomimetic (IRF7, Homo sapiens, UniProt Q92985, residues 1-503, S101K/S471D/S472D/S475D/S476D/S477D/S483D/S484D/S487D)
Technique: protein-binding microarray
Form: double-stranded DNA, one strand shown
Sample: in vitro
Concentration: 250 nM
Notes: 60-bp whole probe
With: salmon DNA 0.4 mg/ml
Baseline: random background probes
Direction: higher = stronger binding
All sequences stand within: GCCTAGCAC … GTCTTGATTCGCTTGACGCTGCTG
Construct (chain): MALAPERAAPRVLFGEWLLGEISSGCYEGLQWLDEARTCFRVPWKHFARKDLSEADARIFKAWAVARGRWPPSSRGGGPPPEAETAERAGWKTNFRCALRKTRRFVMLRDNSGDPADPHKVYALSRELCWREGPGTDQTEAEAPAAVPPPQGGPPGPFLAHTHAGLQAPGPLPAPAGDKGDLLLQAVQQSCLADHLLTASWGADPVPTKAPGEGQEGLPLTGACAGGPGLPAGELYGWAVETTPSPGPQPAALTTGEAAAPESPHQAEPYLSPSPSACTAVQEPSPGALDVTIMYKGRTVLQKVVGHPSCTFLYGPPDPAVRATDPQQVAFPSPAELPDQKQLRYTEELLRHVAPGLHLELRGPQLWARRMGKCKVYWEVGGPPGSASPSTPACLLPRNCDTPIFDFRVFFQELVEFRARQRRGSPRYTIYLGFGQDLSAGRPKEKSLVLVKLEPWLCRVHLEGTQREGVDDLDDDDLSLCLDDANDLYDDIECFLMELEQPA
Strand	log fluorescence [z-score]
GGTACTCACCTCCAGGCTGAGTGCTAG	-0.133
AAGACCATCCTATGTAGATGTGTGCTA	0.659
TGTTTTTCATTGTTTTTCATCGTGCTA	2.57
TCAAAGATTGCCGTTTCCACTGTGCTA	-0.0308
TCACTTCTGGTGCTCATACTGTGCTAG	0.295
GACGATCTCCTTTTCCTGACGTGCTAG	0.551
TTAGGTCACGGTTTCGGTTAGTGCTAG	9.62
TCATCTTTATGCACTCTTACTGTGCTA	0.214

Sample 2
SMILES: O=C(NS(=O)(=O)c1ccc(NCC2CCOCC2)c([N+](=O)[O-])c1)c1ccc(N2CCN(Cc3ccc(C(F)(F)F)cc3-c3ccc(Cl)cc3)CC2)cc1Oc1cnc2[nH]ccc2c1
Technique: competition with immobilised ligand
Concentration: 1 µM
target	assay	remaining binding
HUNK (Homo sapiens, UniProt P57058)	cell-free assay	100%
Tyrosine-protein kinase ABL1, phosphorylated (ABL1, Homo sapiens, UniProt P00519, E255K)	binding	91%
PHKG1 (Homo sapiens, UniProt Q16816)	cell-free assay	100%
PRKD1 (Homo sapiens, UniProt Q15139)	cell-free assay	89%
ROS1 (Homo sapiens, UniProt P08922)	cell-free assay	87%
MINK1 (Homo sapiens, UniProt Q8N4C8)	cell-free assay	84%
MAP3K2 (Homo sapiens, UniProt Q9Y2U5)	cell-free assay	100%
WNK2 (Homo sapiens, UniProt Q9Y3S1)	cell-free assay	75%

Sample 3
Host: human
Sample: microsomes or S9
Concentration: 2 µM
Time: 0.5 h
Compound	remaining compound
CC1c2cccn2-c2sc3c(c2CN1C(=O)NC1CCCC1)CCCC3 (centres unmarked)	< 1%
CCNC(=O)Nc1ccc2c(cnn2-c2cc(C(C)=O)c(Cl)cc2Cl)c1	> 100%
O=C(c1ccc(Cl)s1)N1CCCn2nc(-c3ccncc3)cc2C1	68.3%
COc1cc2c(cc1OC)CCN(C(C)C(=O)NC(C)C)CC2 (centres unmarked)	3.34%
CCCN(CC(=O)OC(C)(C)C)C(=O)Cc1c(C)[nH]c2ccnn2c1=O	72.8%

Sample 4
Target: Runt-related transcription factor 3, Runt domain (RUNX3, Homo sapiens, UniProt Q13761, residues 53-186)
Chain of UniProt Q13761 (53-186, looked up): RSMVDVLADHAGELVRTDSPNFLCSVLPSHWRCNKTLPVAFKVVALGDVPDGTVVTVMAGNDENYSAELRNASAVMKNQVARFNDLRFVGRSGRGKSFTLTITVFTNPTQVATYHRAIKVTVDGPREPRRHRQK
Technique: protein-binding microarray
Form: hairpin DNA
Sample: in vitro
Concentration: not given
Notes: whole hairpin DNA, median over replicate spots
Baseline: not given
Direction: higher = stronger binding
Strand	median fluorescence
GAGGCCCAGCCGCAACAGCCTCCTGGCTGTTGCGGCTGGGCCTCACACTC (5mC at 36)	5930 a.u.
GAGGCCTGTTGTTGTTGGCCTCCTGGCCAACAACAACAGGCCTCACACTC	4100 a.u.
CTCAGTTCTCGGGGCTGGACTCCTGTCCAGCCCCGAGAACTGAGACACTC (5mC at 34)	4180 a.u.
CTCAGTTCTGTGAGCTGGACTCCTGTCCAGCTCACAGAACTGAGACACTC	4110 a.u.
GAGGGCTGTCGCGGTTGGCCTCCTGGCCAACCGCGACAGCCCTCACACTC (5mC at 40)	6370 a.u.
GAGGCCTGTTGCGGTTCGCCTCCTGGCGAACCGCAACAGGCCTCACACTC	7130 a.u.
GAGGCCTGTCGCGGCGGGCCTCCTGGCCCGCCGCGACAGGCCTCACACTC	5940 a.u.
GAGGCCTGTCTCGGTTGGCCTCCTGGCCAACCGAGACAGGCCTCACACTC	5020 a.u.
